Experimental data of several laboratories.
“And” joins repeats or separate records; there may be more than shown. Numbers after ± are the reported error.
GBA2: Beta-glucosidase (GBA2, Homo sapiens, UniProt Q9HCG7)

CC[C@H]([C@H](CC)c1ccc(O)cc1)[C@@H](C)c1ccc(O)cc1 has an EC50 of 0.00382 nM (Estrogen receptor (ESR1, Homo sapiens, UniProt P03372); reporter gene, luciferase reporter (3xERE); 293T; 24 h).
With COc1cc(/C=C/C(=O)C2=C(/C=C/c3ccc(O)c(OC)c3)NC(=S)NC2[c-]2cccc2)ccc1O.[Fe+2].c1cc[cH-]c1 (racemic) the DC50 was 20000 ± 1100 nM (Amyloid-beta precursor protein, Aβ40 fibrils (APP, Homo sapiens, UniProt P05067); amyloid fibril disassembly, thioflavin T fluorescence; 24 h, 37 °C, together with: 25 µM amyloid-beta).
For CC(=O)N[C@@H]1[C@@H](O[C@@H]2O[C@H](C(=O)O)[C@@H](O[C@@H]3O[C@H](COS(=O)(=O)O)[C@@H](OS(=O)(=O)O)[C@H](O[C@@H]4O[C@H](C(=O)O)[C@@H](O[C@@H]5O[C@H](COS(=O)(=O)O)[C@@H](OS(=O)(=O)O)[C@H](O[C@@H]6O[C@H](C(=O)O)[C@@H](OS(=O)(=O)O)[C@H](OS(=O)(=O)O)[C@H]6OS(=O)(=O)O)[C@H]5NC(C)=O)[C@H](OS(=O)(=O)O)[C@H]4OS(=O)(=O)O)[C@H]3NC(C)=O)[C@H](OS(=O)(=O)O)[C@H]2OS(=O)(=O)O)[C@H](OS(=O)(=O)O)[C@@H](COS(=O)(=O)O)O[C@H]1N=[N+]=[N-], the EC50 was 520 ± 240 nM (Fibroblast growth factor 2 (Homo sapiens, UniProt P09038); probe displacement, FP competition; protein 23 nM, together with: TAMRA-labelled sHA tetramer probe).
COc1ccccc1-c1ccc(COCCCCCN2C[C@H](O)[C@@H](O)[C@H](O)[C@H]2CO)cc1 gave an IC50 of 3 nM (GBA2; inhibitor, 4MU-β-D-glucopyranoside; HEK293T homogenates overexpressing GBA2).
For NCCCC[C@H](NC(=O)[C@H](C/C=C/C[C@H](NC(=O)[C@@H]1CCCN1)C(=O)N[C@@H](CCCCN)C(=O)NCCCN)NC(=O)[C@@H]1CCCN1)C(=O)NCCCN, the Kd was 41100 nM ((CCUG)10 RNA; SPR).
With CC(C)=CCC/C(C)=C/CC/C(C)=C/COCCCCCN1C[C@H](O)[C@@H](O)[C@H](O)[C@H]1CO the IC50 was 4 nM (GBA2; inhibitor, 4MU-β-D-glucopyranoside; HEK293T homogenates overexpressing GBA2).
For CCc1nc2cc3ccccc3cc2cc1C(=O)N1CCC[C@H]1C(=O)N[C@@H](CCC/C=C/CCC[C@H](NC(=O)[C@@H]1CCCN1C(=O)c1cc2cc3ccccc3cc2nc1CC)C(=O)N[C@@H](CCCCN)C(=O)NCCCN)C(=O)N[C@@H](CCCCN)C(=O)NCCCN, the Kd was 73.6 ± 0.75 nM ((CCUG)10 RNA; fluorescence titration).
F[B-](F)(F)c1ccccc1/N=N/c1ccccc1 gave a Ki of 63700 nM (Chymotrypsinogen A (Bos taurus, UniProt P00766); enzyme activity, inhibitor; pH 7.81, 25 °C, cis-enriched photostationary state, together with: Suc-AAPF-AMC).
With COc1cc(C2C(NC(=O)c3ccc(NC(=O)OC(C)(C)C)cc3)(C(=O)O)C(c3ccc(OC(=O)c4cccs4)c(OC)c3)C2(NC(=O)c2ccc(NC(=O)OC(C)(C)C)cc2)C(=O)O)ccc1OC(=O)c1cccs1 (stereo not shown) the EC50 was 41.7 nM (GLP1R (Homo sapiens, UniProt P43220, R380A); cAMP, agonist).
The IC50 of OC[C@@H]1[C@@H](O)[C@H](O)[C@@H](O)CN1CCCCCOCc1ccc(-c2ccc3c(c2)OCO3)cc1 is reported as 2 nM (GBA2; inhibitor, 4MU-β-D-glucopyranoside; HEK293T homogenates overexpressing GBA2).
With Cc1cccc2c1N(C(=O)n1ccnn1)CC2 the Kd was 92600 nM and 49300 nM and 158000 nM (KAI2 (Arabidopsis thaliana, UniProt Q9SZU7, H246F); ITC; H246F mutant).
Cc1c[nH]c2nccc(-c3ccc(C(=O)N[C@@H]4c5c(F)cc(C(F)F)cc5C[C@@H]4O)cn3)c12 gave a Kd of 180 nM (MAP3K19 (Homo sapiens, UniProt Q56UN5); binding, competition with immobilised ligand).
N#Cc1cccc(-c2ccc(COCCCCCN3C[C@H](O)[C@@H](O)[C@H](O)[C@H]3CO)cc2)c1 gave an IC50 of 2 nM (GBA2; inhibitor, 4MU-β-D-glucopyranoside; HEK293T homogenates overexpressing GBA2).
With Cc1nn(-c2cccc(N)c2)c(=O)c2cnc(Nc3ccc(N4CCNCC4)cc3)nc12 the IC50 was 2410 nM (MAP3K8 (Homo sapiens, UniProt P41279); SelectScreen kinase).
OC[C@H]1[C@@H](O)[C@H](O)[C@@H](O)CN1CCCCCOCc1ccccc1-c1ccccc1 has an IC50 of 3 nM (GBA2; inhibitor, 4MU-β-D-glucopyranoside; HEK293T homogenates overexpressing GBA2).
Cn1ccc2c(N3CCN(CCCCOc4ccc5c(c4)NC(=O)CC5)CC3)cccc21 has a Ki of 410 nM (ADRA2A (Homo sapiens, UniProt P08913); ligand displacement, radioligand).

Some of these lines once more:
For CC(=O)N[C@@H]1[C@@H](O[C@@H]2O[C@H](C(=O)O)[C@@H](O[C@@H]3O[C@H](COS(=O)(=O)O)[C@@H](OS(=O)(=O)O)[C@H](O[C@@H]4O[C@H](C(=O)O)[C@@H](O[C@@H]5O[C@H](COS(=O)(=O)O)[C@@H](OS(=O)(=O)O)[C@H](O[C@@H]6O[C@H](C(=O)O)[C@@H](OS(=O)(=O)O)[C@H](OS(=O)(=O)O)[C@H]6OS(=O)(=O)O)[C@H]5NC(C)=O)[C@H](OS(=O)(=O)O)[C@H]4OS(=O)(=O)O)[C@H]3NC(C)=O)[C@H](OS(=O)(=O)O)[C@H]2OS(=O)(=O)O)[C@H](OS(=O)(=O)O)[C@@H](COS(=O)(=O)O)O[C@H]1N=[N+]=[N-], the EC50 was 520 ± 240 nM (Fibroblast growth factor 2 (Homo sapiens, UniProt P09038); probe displacement, FP competition; protein 23 nM, together with: TAMRA-labelled sHA tetramer probe).
With COc1cc(C2C(NC(=O)c3ccc(NC(=O)OC(C)(C)C)cc3)(C(=O)O)C(c3ccc(OC(=O)c4cccs4)c(OC)c3)C2(NC(=O)c2ccc(NC(=O)OC(C)(C)C)cc2)C(=O)O)ccc1OC(=O)c1cccs1 (stereo not shown) the EC50 was 41.7 nM (GLP1R (Homo sapiens, UniProt P43220, R380A); cAMP, agonist).
COc1ccccc1-c1ccc(COCCCCCN2C[C@H](O)[C@@H](O)[C@H](O)[C@H]2CO)cc1 gave an IC50 of 3 nM (GBA2; inhibitor, 4MU-β-D-glucopyranoside; HEK293T homogenates overexpressing GBA2).
